# Results collected from several papers.
# Compare with care: the assays were run in different laboratories. ± gives the spread as reported.
SMILES,test,test system,setting,tissue uptake [%ID/g]
C[C@H](O)[C@@H](NC(=O)[C@H]1CCCN1C(=O)[C@@H](CCCCN)NC(=O)[C@@H](CO)NC(=O)[C@@H](Cc1ccc(O)cc1)NC(=O)[C@@H](CC(N)=O)NC(=O)CCOCCOCCOCCNC(=O)CN1CCN(CC(=O)O)CCN(CC(=O)O)CCN(CC(=O)O)CC1)C(=O)N[C@H](CC(=O)O)C(=O)N[C@H](CCCNC(=N)N)C(=O)N[C@H](CCC(N)=O)C(=O)N[C@H](Cc1ccc(O)cc1)C(=O)N[C@H](Cc1c[nH]cn1)C(=O)N[C@H](Cc1ccccc1)C(N)=O [copper-64 labelled],,"C57BL/6J mice, kidney","intravenous, 1.85 MBq, 1.333 h, radiolabelled",28.5 ± 3.22
CN1Cc2cc(Cl)ccc2-n2c(nnc2C2CCN(c3cccc([18F])n3)CC2)C1,,"C57BL/6 mouse male, brain","intravenous, 3.7 MBq, 5 min",0.77 ± 0.06
CC[C@H](C)[C@H](NC(=O)[C@H](CCCNC(=N)N)NC(=O)[C@H](CCCCN)NC(=O)[C@H](Cc1ccc(O)cc1)NC(=O)[C@H](CC(=O)O)NC(=O)[C@H](C)NC(=O)CNC(=O)CCOCCOCCOCCNC(=O)CN1CCN(CC(=O)O)CCN(CC(=O)O)CCN(CC(=O)O)CC1)C(=O)N[C@H](C(=O)N[C@@H](CC(C)C)C(=O)N[C@@H](CCCCN)C(=O)N[C@H](C(=O)N[C@@H](CC(N)=O)C(N)=O)C(C)C)[C@@H](C)O [copper-64 labelled],ex vivo gamma counting,"C57BL/6J male mice, B16-F10 tumour, brain","intravenous, 1.85 MBq, 5 min",0.212 ± 0.012
CC[C@H](C)[C@H](NC(=O)[C@@H](Cc1c[nH]c2ccccc12)NC(=O)[C@@H]1CCCN1C(=O)[C@H](CCCCN)NC(=O)[C@H](CCCCN)NC(=O)CCNC(=O)CCNC(=O)CN1CCN(CC(=O)O)CCN(CC(=O)O)CCN(CC(=O)O)CC1)C(=O)N[C@@H](C[Si](C)(C)C)C(=O)O [gallium-68 labelled],,"nude mouse HT-29 xenograft, blood",90 min,0.18 ± 0.08
CC[C@H](C)[C@H](NC(=O)[C@H](CCCNC(=N)N)NC(=O)[C@H](CCCCN)NC(=O)[C@H](Cc1ccc(O)cc1)NC(=O)[C@H](CC(=O)O)NC(=O)[C@H](C)NC(=O)CNC(=O)CCOCCOCCOCCNC(=O)CN1CCN(CC(=O)O)CCN(CC(=O)O)CCN(CC(=O)O)CC1)C(=O)N[C@H](C(=O)N[C@H](C(=O)N[C@@H](CCCCN)C(=O)N[C@H](C(=O)N[C@@H](CC(N)=O)C(N)=O)C(C)C)C(C)C)[C@@H](C)O [copper-64 labelled],ex vivo gamma counting,"C57BL/6J male mice, B16-F10 tumour, brain","intravenous, 1.85 MBq, 5 min",0.296 ± 0.046
CC[C@H](C)[C@H](NC(=O)[C@H](CCCCN)NC(=O)CNC(=O)[C@H](CC(C)C)NC(=O)[C@H](Cc1ccccc1)NC(=O)[C@H](CCCCN)NC(=O)[C@H](CO)NC(=O)[C@H](Cc1ccccc1)NC(=O)[C@H](Cc1c[nH]c2ccccc12)NC(=O)[C@H](CCC(N)=O)NC(=O)[C@@H](NC(=O)[C@H](Cc1ccccc1)NC(=O)CCCCCNC(=O)CN1CCN(CC(=O)O)CCN(CC(=O)O)CCN(CC(=O)O)CC1)C(C)C)C(=O)N[C@@H](CCC(=O)O)C(=O)N1CCC[C@H]1C(=O)N[C@@H](CC(=O)O)C(=O)N[C@H](C(=O)N[C@@H](CO)C(=O)N[C@@H](CCC(N)=O)C(=O)N[C@H](C(=O)N[C@@H](CCC(N)=O)C(=O)N[C@@H](CC(=O)O)C(=O)N1CCC[C@H]1C(=O)N[C@@H](CC(N)=O)C(=O)N[C@@H](CC(=O)O)C(=O)N[C@@H](CCC(N)=O)C(=O)N[C@@H](Cc1ccc(O)cc1)C(=O)N[C@@H](CCC(=O)O)C(=O)N1CCC[C@H]1C(=O)N[C@@H](Cc1ccccc1)C(=O)O)C(C)C)C(C)C [copper-64 labelled],,"BALB/c mice, male, CT26 tumour-bearing, stomach","2 h, vehicle-treated",1.68 ± 0.9
CSCC[C@H](NC(=O)CNC(=O)[C@H](CCCCN)NC(=O)[C@H](CC(C)C)NC(=O)[C@@H]1CCCN1C(=O)[C@H](CO)NC(=O)[C@H](Cc1c[nH]cn1)NC(=O)[C@H](Cc1c[nH]c2ccccc12)NC(=O)[C@H](CCCNC(=N)N)NC(=O)[C@H](CC(C)C)NC(=O)[C@H](CCCNC(=N)N)NC(=O)[C@H](Cc1c[nH]c2ccccc12)NC(=O)[C@H](CS)NC(=O)CCCCCNC(=O)CN1CCN(CC(=O)O)CCN(CC(=O)O)CCN(CC(=O)O)CC1)C(=O)O [copper-64 labelled],ex vivo biodistribution,"C57BL/6J mice bearing B16-F10 tumours, liver","intravenous, 1.85 MBq, 30 h",16
CCCC[C@H]1C(=O)N(C)[C@@H](CCCC)C(=O)N[C@@H](CCCNC(=O)CN2CCN(CC(=O)O)CCN(CC(=O)O)CCN(CC(=O)O)CC2)C(=O)N[C@H](C(=O)NCC(N)=O)CSCC(=O)N[C@@H](Cc2ccc(O)cc2)C(=O)N(C)[C@@H](C)C(=O)N[C@@H](CC(N)=O)C(=O)N2CCC[C@H]2C(=O)N[C@@H](Cc2c[nH]cn2)C(=O)N[C@@H](CC(C)C)C(=O)N(C)CC(=O)N[C@@H](Cc2c[nH]c3ccccc23)C(=O)N[C@@H](CO)C(=O)N[C@@H](Cc2c[nH]c3ccccc23)C(=O)N1C [gallium-68 labelled],,"NOD/SCID mice with CHO-hPD-L1 xenograft, skin",120 min post injection,4.03 ± 1.58
